Measured values collected from several papers.
Parts stem from different laboratories: compare values within a part only. Positions count from the first letter of the parent shown.

Sample 1
Target: Sal-like protein 4, full length isoform A (SALL4, Homo sapiens, UniProt Q9UJQ4, residues 1-1053)
UniProt Q9UJQ4, sequence (whole entry, looked up): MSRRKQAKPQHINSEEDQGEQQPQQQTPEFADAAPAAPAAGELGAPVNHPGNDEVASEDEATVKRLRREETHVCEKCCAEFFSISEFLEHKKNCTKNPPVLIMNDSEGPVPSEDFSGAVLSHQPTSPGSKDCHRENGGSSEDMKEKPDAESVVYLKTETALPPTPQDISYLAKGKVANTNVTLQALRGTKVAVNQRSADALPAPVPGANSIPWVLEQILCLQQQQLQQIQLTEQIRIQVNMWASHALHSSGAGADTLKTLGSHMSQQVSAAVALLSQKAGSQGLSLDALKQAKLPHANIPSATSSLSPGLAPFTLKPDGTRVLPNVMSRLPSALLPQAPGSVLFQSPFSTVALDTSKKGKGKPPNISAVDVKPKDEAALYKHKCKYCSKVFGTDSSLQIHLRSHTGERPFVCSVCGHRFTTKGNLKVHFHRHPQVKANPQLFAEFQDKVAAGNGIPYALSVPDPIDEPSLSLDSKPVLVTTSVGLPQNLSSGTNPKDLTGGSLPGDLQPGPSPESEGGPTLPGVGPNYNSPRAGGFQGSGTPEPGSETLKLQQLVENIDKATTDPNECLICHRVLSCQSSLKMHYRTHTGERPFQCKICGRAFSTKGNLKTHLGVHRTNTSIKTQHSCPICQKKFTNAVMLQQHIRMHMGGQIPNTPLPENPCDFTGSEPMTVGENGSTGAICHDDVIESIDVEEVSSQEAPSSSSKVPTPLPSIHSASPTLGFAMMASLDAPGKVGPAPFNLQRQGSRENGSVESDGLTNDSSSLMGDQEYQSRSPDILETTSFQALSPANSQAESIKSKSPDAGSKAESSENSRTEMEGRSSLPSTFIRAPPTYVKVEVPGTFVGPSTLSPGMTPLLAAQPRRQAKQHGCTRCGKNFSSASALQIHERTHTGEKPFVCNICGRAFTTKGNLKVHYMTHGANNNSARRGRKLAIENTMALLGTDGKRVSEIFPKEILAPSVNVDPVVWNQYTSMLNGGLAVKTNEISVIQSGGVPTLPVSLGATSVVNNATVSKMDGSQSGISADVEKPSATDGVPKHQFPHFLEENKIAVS
Technique: universal PBM
Form: double-stranded DNA, one strand shown
Medium: in vitro
Tested at: 600 nM
Setting: 8-mer, flanks averaged, mean of replicates
Reading: higher = stronger binding
For `ATCTGTCA`, the E-score was 0.119.
`CCTCATAC` gave an E-score of 0.144.
The E-score of `AGCAGATC` is reported as 0.0263.
The E-score of `TATACTGA` is reported as 0.318.
With `CGGATTTC` the E-score was -0.106.
`CGTGGTGC` has an E-score of -0.257.
With `GAGAGTTA` the E-score was 0.185.
With `ACGTCCTA` the E-score was -0.0942.
`GTCGGCTA` gave an E-score of -0.09.
The E-score of `ATAGCGGG` is reported as -0.0259.
With `CATTGTTC` the E-score was 0.0259.
With `TATCGGCA` the E-score was 0.0335.
The E-score of `ATGGCTAG` is reported as -0.0169.
`CTGCCATA` gave an E-score of 0.0497.
For `CTCACCAC`, the E-score was -0.167.
With `AAGGATGT` the E-score was -0.0812.
For `ACGACGAT`, the E-score was 0.00745.
The E-score of `CTTTTCCC` is reported as 0.0167.
`TCCAGCAA` has an E-score of 0.103.
With `AAAACTTA` the E-score was 0.326.
The E-score of `GCTGCTCA` is reported as -0.166.
`CCCCAGTA` has an E-score of -0.196.
For `GTGCGCCA`, the E-score was -0.24.
`CGTAACTA` gave an E-score of 0.0885.
`CAGGTGAG` has an E-score of -0.208.

Sample 2
Target: Myc proto-oncogene protein, bHLH-zipper, MAX partner unstated (MYC, Homo sapiens, UniProt P01106, residues 368-449)
UniProt P01106, sequence (368-449, looked up): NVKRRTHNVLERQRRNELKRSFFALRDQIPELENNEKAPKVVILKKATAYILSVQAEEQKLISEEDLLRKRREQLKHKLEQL
Technique: protein-binding microarray
Form: double-stranded DNA, one strand shown
Medium: in vitro
Tested at: not given
Setting: k-mer, scored over probes, only values ≥0.25
Reading: higher = stronger binding
`AACATGGT` has an E-score of 0.252.
The E-score of `ACGTGCTG` is reported as 0.392.
For `CTGCACGC`, the E-score was 0.388.
The E-score of `ACGCACGG` is reported as 0.292.
The E-score of `CCGACACG` is reported as 0.298.
The E-score of `CCAAACAC` is reported as 0.25.
`GGCATGGA` gave an E-score of 0.331.
With `AAACGCAT` the E-score was 0.298.
With `CAGCATGA` the E-score was 0.259.
`GTCATGCA` gave an E-score of 0.267.
For `CATGGTAA`, the E-score was 0.288.
The E-score of `CGTGCAAG` is reported as 0.285.
For `ACGTGGGA`, the E-score was 0.434.
For `ACAGGTGG`, the E-score was 0.342.
The E-score of `ACGCGGCC` is reported as 0.309.
The E-score of `CGTGGAGC` is reported as 0.416.
The E-score of `ACGCGTCC` is reported as 0.343.
With `ACGTGCAA` the E-score was 0.406.
`AGCATGAC` has an E-score of 0.322.
The E-score of `ATGGGCGC` is reported as 0.27.
The E-score of `CACGAGAA` is reported as 0.285.
For `CCACGCCC`, the E-score was 0.381.
For `GCGGGGCA`, the E-score was 0.259.
`CATGACAC` gave an E-score of 0.326.
`AGCGCATG` gave an E-score of 0.427.

Sample 3
Target: FOS, bZIP domain (human)
Technique: DHFR protein complementation
Medium: yeast
Setting: single substitutions, most at no-binding floor
Relative to: wild-type JUN-FOS pair
Reading: higher = stronger binding
Starting sequence: JUN, bZIP domain (human); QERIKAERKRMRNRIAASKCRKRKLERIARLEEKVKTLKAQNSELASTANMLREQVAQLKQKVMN; partner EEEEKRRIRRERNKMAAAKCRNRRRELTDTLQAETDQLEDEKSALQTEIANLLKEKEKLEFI
The binding fitness of `A46L` is reported as -0.0702 natural log.
`S43H` gave a binding fitness of -0.0165 natural log.
`A49Y` gave a binding fitness of -0.442 natural log.
`L38R` gave a binding fitness of -1.16 natural log.
With `A49F` the binding fitness was -1.02 natural log.
`A57D` has a binding fitness of -0.0169 natural log.
For `Q58T`, the binding fitness was -0.0468 natural log.
For `K36S`, the binding fitness was -0.0749 natural log.
`E44Q` gave a binding fitness of -0.0392 natural log.
For `Q58F`, the binding fitness was -0.162 natural log.
`E33A` has a binding fitness of -0.0771 natural log.
The binding fitness of `K39S` is reported as -0.451 natural log.
`I28L` gave a binding fitness of -0.0381 natural log.
For `A46G`, the binding fitness was -0.403 natural log.
`V56Q` gave a binding fitness of -1.38 natural log.
`A49W` gave a binding fitness of -0.763 natural log.
With `E33P` the binding fitness was -1.26 natural log.
The binding fitness of `T48F` is reported as -0.0488 natural log.
For `K34F`, the binding fitness was -0.631 natural log.
With `A57L` the binding fitness was -0.242 natural log.
`S47C` has a binding fitness of -0.0254 natural log.
With `E32I` the binding fitness was -0.225 natural log.
For `E54P`, the binding fitness was -1.14 natural log.
`A57W` has a binding fitness of -0.2 natural log.
With `K36T` the binding fitness was -0.119 natural log.

Sample 4
Target: CCNB3, cyclin fold, Cln2 fusion (human)
Technique: yeast growth competition, sequencing
Medium: yeast
Setting: weak parent motif
Relative to: not given
Reading: higher = stronger binding
Starting sequence: SAMHD1 docking peptide (human); ASKSRVQLFKDDP; partner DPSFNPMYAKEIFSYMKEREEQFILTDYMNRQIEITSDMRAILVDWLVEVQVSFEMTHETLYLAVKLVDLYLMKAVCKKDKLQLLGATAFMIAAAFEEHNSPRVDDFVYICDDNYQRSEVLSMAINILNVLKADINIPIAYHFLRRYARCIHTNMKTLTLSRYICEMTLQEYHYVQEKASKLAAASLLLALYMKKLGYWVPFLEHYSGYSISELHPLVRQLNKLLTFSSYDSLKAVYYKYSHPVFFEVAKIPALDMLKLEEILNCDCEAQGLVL
Under “normalised enrichment score”, `ASKSRVQLFKDLP [D12L]` is recorded as -0.0112.
For `ASKSRVQIFKDDP [L8I]`, “normalised enrichment score” read -0.103.
`ASKSRVQLFKDVP [D12V]`: “normalised enrichment score” 0.389.
For `ASKSGVQLFKDDP [R5G]`, “normalised enrichment score” read -0.311.
For `ASKSRVQAFKDDP [L8A]`, “normalised enrichment score” read -0.354.
`ASESRVQLFKDDP [K3E]`: “normalised enrichment score” 0.0318.
For `ASKSRAQLFKDDP [V6A]`, “normalised enrichment score” read 0.162.
`ASKSRVQLSKDDP [F9S]`: “normalised enrichment score” 0.0479.
Under “normalised enrichment score”, `ASKSRVQLFKWDP [D11W]` is recorded as -0.408.
Under “normalised enrichment score”, `ASKSRVQLFKEDP [D11E]` is recorded as 0.14.
`ASKSRVQLQKDDP [F9Q]`: “normalised enrichment score” -0.112.
`AFKSRVQLFKDDP [S2F]`: “normalised enrichment score” 0.137.
For `ASKSRVQQFKDDP [L8Q]`, “normalised enrichment score” read -0.204.
For `ASKSRVSLFKDDP [Q7S]`, “normalised enrichment score” read -0.195.
For `ASKSRVQLFKDSP [D12S]`, “normalised enrichment score” read -0.0141.
Under “normalised enrichment score”, `ASKPRVQLFKDDP [S4P]` is recorded as -0.0186.
`ASISRVQLFKDDP [K3I]` — result for “normalised enrichment score”: 0.0887.
Under “normalised enrichment score”, `ASKSRVQLFKSDP [D11S]` is recorded as 0.601.
Under “normalised enrichment score”, `ASKSRVQLFKDFP [D12F]` is recorded as -0.222.
`ASKCRVQLFKDDP [S4C]`: “normalised enrichment score” 0.768.
`ASKSRVQTFKDDP [L8T]` — result for “normalised enrichment score”: -0.0783.

Sample 5
Target: Ras GTPase-activating protein-binding protein 1, full length (G3BP1, Homo sapiens, UniProt Q13283)
UniProt Q13283, sequence (whole entry, looked up): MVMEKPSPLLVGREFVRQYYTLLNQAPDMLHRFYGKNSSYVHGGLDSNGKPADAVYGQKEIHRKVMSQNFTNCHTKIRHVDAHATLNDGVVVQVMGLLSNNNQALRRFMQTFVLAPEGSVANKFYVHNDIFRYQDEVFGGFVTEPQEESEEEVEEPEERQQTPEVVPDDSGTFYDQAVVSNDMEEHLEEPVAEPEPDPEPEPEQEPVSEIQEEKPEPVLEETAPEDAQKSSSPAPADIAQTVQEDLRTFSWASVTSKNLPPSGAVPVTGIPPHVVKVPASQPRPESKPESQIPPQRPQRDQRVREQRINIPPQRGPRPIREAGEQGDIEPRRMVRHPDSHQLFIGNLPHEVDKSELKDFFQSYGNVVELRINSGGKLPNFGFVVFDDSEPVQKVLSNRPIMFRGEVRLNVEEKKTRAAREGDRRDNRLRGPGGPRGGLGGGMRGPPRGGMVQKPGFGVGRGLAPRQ
Technique: RNA Bind-n-Seq
Form: RNA
Medium: in vitro
Tested at: 200 nM
Setting: whole 134-nt RNA, ends assumed
Together with: 150 mM LiCl
Relative to: input library
Reading: higher = stronger binding
All molecules: 7-deaza-guanosine replaces G
`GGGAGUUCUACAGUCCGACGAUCUCCUGUGCUACACAUCGUAUGUACCGAAUCGGGGAAAGGGGAAAAAGGGGUUUUUGGGGAAAGUAUUAUGUUACGCCGUUCGGAUCUGCAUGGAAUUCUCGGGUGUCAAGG` has a log2 enrichment of 0.659.
For `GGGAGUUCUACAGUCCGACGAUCUUCGUUUUUUUCCUUAGUCUGAAGUUGCAGCCGGAGUGAAGAAGAGCGGACCGCUGCCCAGUGCUGAGGUAGAGUGUCGGAUCUGUUUUCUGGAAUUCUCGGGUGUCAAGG`, the log2 enrichment was -0.861.
The log2 enrichment of `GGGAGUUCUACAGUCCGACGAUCAAGUCCUGUGCUACACAUCGUAUGUACCGAAUCGGGUUUGGGUGGGUUUUUUUGGGAAAGUAUUAUGUUACGCCGUUCGGAUCUGCACUUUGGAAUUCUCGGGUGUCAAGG` is reported as -0.403.
`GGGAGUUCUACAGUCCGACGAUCCCUGUGCUACACAUCGUAUGUACCGAAUCGGGGAAAAAAGGGAAAAAAGGAAAAAAGGGGAAAGUAUUAUGUUACGCCGUUCGGAUCUGCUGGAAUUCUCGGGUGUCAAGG` has a log2 enrichment of 0.557.
The log2 enrichment of `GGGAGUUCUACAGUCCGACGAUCGUCCUGUGCUACACAUCGUAUGUACCGAAUCGGGGUUUUUGGGGUUUGGGGAAAGGGGAAAGUAUUAUGUUACGCCGUUCGGAUCUGCACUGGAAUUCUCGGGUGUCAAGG` is reported as -0.737.
`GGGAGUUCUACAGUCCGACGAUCCCUCAAGUCCUGUGCUACACAUCGUAUGUACCGAAUCGGGGAGGAGGGGAGGAAAGUAUUAUGUUACGCCGUUCGGAUCUGCACUUCCAGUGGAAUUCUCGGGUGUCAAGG` gave a log2 enrichment of 0.49.
The log2 enrichment of `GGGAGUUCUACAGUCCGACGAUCGCAGGAAGUAAAAACAAAUGGAAAUGCUUCGGAUAGUGGAAGGGGUGGGGGUUGCUAAGGAAAGGGUGGGAUGGGAGUGGGUAAAGAGUUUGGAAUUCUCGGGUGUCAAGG` is reported as 0.236.
`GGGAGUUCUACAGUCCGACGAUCUCCUGUGCUACACAUCGUAUGUACCGAAUCGGGGCCCCCGGGGCCCCCGGCCCCCGGGGAAAGUAUUAUGUUACGCCGUUCGGAUCUGCAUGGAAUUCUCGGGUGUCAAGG` gave a log2 enrichment of -0.685.

Some of these lines once more (sample 5):
`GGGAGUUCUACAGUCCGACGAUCUCCUGUGCUACACAUCGUAUGUACCGAAUCGGGGAAAGGGGAAAAAGGGGUUUUUGGGGAAAGUAUUAUGUUACGCCGUUCGGAUCUGCAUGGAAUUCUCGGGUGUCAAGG` has a log2 enrichment of 0.659.
For `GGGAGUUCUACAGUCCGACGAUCUUCGUUUUUUUCCUUAGUCUGAAGUUGCAGCCGGAGUGAAGAAGAGCGGACCGCUGCCCAGUGCUGAGGUAGAGUGUCGGAUCUGUUUUCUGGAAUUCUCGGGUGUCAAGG`, the log2 enrichment was -0.861.
The log2 enrichment of `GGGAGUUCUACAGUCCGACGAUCAAGUCCUGUGCUACACAUCGUAUGUACCGAAUCGGGUUUGGGUGGGUUUUUUUGGGAAAGUAUUAUGUUACGCCGUUCGGAUCUGCACUUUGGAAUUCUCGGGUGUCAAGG` is reported as -0.403.
`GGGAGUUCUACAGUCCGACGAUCCCUGUGCUACACAUCGUAUGUACCGAAUCGGGGAAAAAAGGGAAAAAAGGAAAAAAGGGGAAAGUAUUAUGUUACGCCGUUCGGAUCUGCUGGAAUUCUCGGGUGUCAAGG` has a log2 enrichment of 0.557.
The log2 enrichment of `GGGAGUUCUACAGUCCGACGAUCGUCCUGUGCUACACAUCGUAUGUACCGAAUCGGGGUUUUUGGGGUUUGGGGAAAGGGGAAAGUAUUAUGUUACGCCGUUCGGAUCUGCACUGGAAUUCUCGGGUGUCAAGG` is reported as -0.737.
`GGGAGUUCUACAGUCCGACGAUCCCUCAAGUCCUGUGCUACACAUCGUAUGUACCGAAUCGGGGAGGAGGGGAGGAAAGUAUUAUGUUACGCCGUUCGGAUCUGCACUUCCAGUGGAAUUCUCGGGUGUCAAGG` gave a log2 enrichment of 0.49.
The log2 enrichment of `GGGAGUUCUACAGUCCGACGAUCGCAGGAAGUAAAAACAAAUGGAAAUGCUUCGGAUAGUGGAAGGGGUGGGGGUUGCUAAGGAAAGGGUGGGAUGGGAGUGGGUAAAGAGUUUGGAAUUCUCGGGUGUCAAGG` is reported as 0.236.
`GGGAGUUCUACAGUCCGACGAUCUCCUGUGCUACACAUCGUAUGUACCGAAUCGGGGCCCCCGGGGCCCCCGGCCCCCGGGGAAAGUAUUAUGUUACGCCGUUCGGAUCUGCAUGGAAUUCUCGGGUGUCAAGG` gave a log2 enrichment of -0.685.
